Published values gathered from unrelated publications.
Lines come from different studies, so protocols differ. Values joined by “and” are separate records of one study, mostly repeats; a detail may differ. Numbers after ± are the reported error.

SMILES	tested on	test	system	conditions	scale	measurement	result
O=C(C[Se]C(=O)c1cc2ccccc2o1)Nc1cccc(C(F)(F)F)c1	NCI60 ovarian subpanel	cytotoxicity, inhibitor	–	five-dose	–	CC50	7.55 µM
CC(C)CC(O)(CC(C)C)c1cn(C(=O)N2CCCC2)nn1	mouse T-cells	SILAC proteomics, item: Tmsb4x	–	1 nM, 6 h, single peptides, unit not given	reference: DMSO	protein level	1.14 and 1.25
[Cl-].[Cl-].[Ru+2].c1ccc(-c2ccccn2)nc1.c1ccc(-c2ccccn2)nc1.c1ccc2cc3nc4c5cccnc5c5ncccc5c4nc3cc2c1	SK-MEL-28	cell viability	–	1% O2, with: green light 523 nm, 100 J/cm2	–	EC50	179 ± 12 µM
O=C(C[Se]C(=O)c1ccccc1)Nc1cccc(C(F)(F)F)c1	NCI60 renal subpanel	cytotoxicity, inhibitor	–	five-dose	–	CC50	13 µM
CCOC(=O)C1(Cc2ccccc2)Oc2cc(F)ccc2N(Cc2ccccc2)C1=O (stereo not drawn)	HEK293T	cytotoxicity, CCK-8	–	12.5 µM, 72 h	–	inhibition	0.24 ± 0.45%
CC(C)C[C@H](NC(=O)[C@H](CC(=O)O)NC(=O)CNC(=O)[C@@H](N)CCCNC(=N)N)C(=O)N[C@@H](C)C(=O)N[C@H](C(=O)N[C@@H](CC(C)C)C(=O)N[C@@H](CCCNC(=N)N)C(=O)N[C@@H](CCC(N)=O)C(=O)N[C@@H](CC(C)C)C(=O)N[C@@H](C)C(=O)N[C@@H](CCC(N)=O)C(=O)N[C@@H](CCC(=O)O)C(=O)N[C@@H](CC(=O)O)C(=O)NCC(=O)N[C@H](C(=O)N[C@H](C(=O)NCC(=O)N[C@H](C(=O)N[C@@H](CCCNC(=N)N)C(=O)NCCOCCOCCOCCOCCOCCOCCOCCOCCOCCOCCOCCOCCC(=O)N[C@@H](CS)C(N)=O)C(C)C)C(C)C)C(C)C)[C@@H](C)O	H322	phage binding	–	10 min, 37 °C	reference: control phage	selectivity ratio	68 ± 17
O=C1NC2(CC2)COc2ncc(F)cc2[C@H]2COCCN2c2ccn3ncc1c3n2	–	–	Sprague-Dawley rat, male, brain	oral, 10 mg/kg/day, 4 weeks, end of treatment	–	organ-to-body weight ratio	0.471 ± 0.021%
CSCC[C@H](NC(=O)[C@@H](NC(=O)[C@H](CCC(N)=O)NC(=O)[C@H](CO)NC(=O)[C@@H](N)C(C)C)[C@@H](C)O)C(=O)N[C@@H](CCCNC(=N)N)C(=O)N[C@@H](CCC(N)=O)C(=O)N[C@H](C(=O)N[C@@H](C)C(=O)N[C@H](C(=O)N1CCC[C@H]1C(=O)N[C@@H](CC(C)C)C(=O)N[C@@H](CC(C)C)C(=O)N[C@@H](Cc1c[nH]c2ccccc12)C(=O)N[C@@H](Cc1ccccc1)C(=O)N[C@@H](Cc1c[nH]c2ccccc12)C(=O)N[C@H](C(=O)NCC(=O)N[C@@H](CO)C(=O)N[C@@H](CC(C)C)C(=O)NCCOCCOCCOCCOCCOCCOCCOCCOCCOCCOCCOCCOCCC(=O)N[C@@H](CS)C(N)=O)[C@@H](C)O)C(C)C)[C@@H](C)O	MDA-MB-468 breast cancer	cell binding, phage binding, item: output/input phage	–	10 min, 37 °C	reference: control phage	selectivity ratio	1.5 ± 0.24
Cc1cc(Nc2nc(C[C@@]3(C(=O)O)CCN(Cc4cccc(Cl)c4F)[C@H](C)C3)cc(C)c2F)[nH]n1	A2780	cell growth or viability, ATP luminescence	–	5 days	–	IC50	0.0795 µM
CC(=O)NCSC[C@H](NC(=O)[C@@H]1CCCN1C(=O)[C@H](C)NC(=O)[C@@H](NC(=O)CNC(=O)[C@@H](NC(=O)[C@H](Cc1c[nH]c2ccccc12)NC(=O)[C@H](C)NC(=O)CNC(=O)[C@H](CO)NC(=O)[C@H](C)NC(=O)[C@@H]1CCCN1C(=O)[C@H](Cc1c[nH]c2ccccc12)NC(=O)[C@H](C)NC(=O)[C@H](C)NC(=O)[C@@H](N)Cc1ccc(O)cc1)[C@@H](C)O)[C@@H](C)O)C(=O)N[C@@H](CO)C(=O)N[C@@H](C)C(=O)NCC(=O)N[C@H](C(=O)NCCOCCOCCOCCOCCOCCOCCOCCOCCOCCOCCOCCOCCC(=O)N[C@@H](CS)C(N)=O)[C@@H](C)O	MDA-MB-468 breast cancer	cell binding, phage binding, item: output/input phage	–	10 min, 37 °C	reference: control phage	selectivity ratio	2.6 ± 0.97
Cc1cc(Oc2nc(N3CC[C@@H](c4ccncc4)C3)ncc2F)[nH]n1	A2780	cell proliferation	–	–	–	IC50	16.2 µM
C=CCN1C(=O)C(CC=C)(C(=O)OCC)Oc2cc(F)ccc21 (stereo not drawn)	HEK293T	cytotoxicity, CCK-8	–	1.56 µM, 72 h	–	inhibition	0.06 ± 0.43%
O=C(C[Se]C(=O)c1ccc2ccccc2c1)Nc1cccc(C(F)(F)F)c1	NCI60 NSCLC subpanel	NCI60 five-dose screen	–	–	–	CC50	6.25 µM
CC(C)[C@H](NC(=O)[C@H](CCCNC(=N)N)NC(=O)[C@@H]1CCCN1C(=O)[C@@H](NC(=O)[C@H](C)NC(=O)[C@H](Cc1ccc(O)cc1)NC(=O)[C@H](CCC(N)=O)NC(=O)[C@H](CCCCN)NC(=O)[C@H](CCCNC(=N)N)NC(=O)[C@@H]1CCCN1C(=O)[C@H](CCC(=O)O)NC(=O)[C@@H](NC(=O)[C@H](C)N)[C@@H](C)O)[C@@H](C)O)C(=O)N[C@@H](Cc1ccccc1)C(=O)N[C@@H](Cc1c[nH]c2ccccc12)C(=O)N[C@H](C(=O)N[C@@H](CC(=O)O)C(=O)N[C@@H](C)C(=O)N1CCC[C@H]1C(=O)NCC(=O)NCCOCCOCCOCCOCCOCCOCCOCCOCCOCCOCCOCCOCCC(=O)N[C@@H](CS)C(N)=O)[C@@H](C)O	H2347 lung adenocarcinoma	cell binding, phage binding, item: output/input phage	–	10 min, 37 °C	reference: control phage	selectivity ratio	2 ± 0.87
Cc1cccc(-c2cccc(C)n2)n1.Cc1cccc(-c2cccc(C)n2)n1.F[P-](F)(F)(F)(F)F.F[P-](F)(F)(F)(F)F.[Ru+2].c1ccc2c(-c3nc4c5cccnc5c5ncccc5c4[nH]3)cccc2c1	SK-MEL-28	cell growth or viability, resazurin	–	dark	–	EC50	53.8 µM
O=C(C[Se]C(=O)c1cccnc1Nc1cccc(C(F)(F)F)c1)Nc1cccc(C(F)(F)F)c1	NCI60 prostate subpanel (PC-3, DU-145)	cytotoxicity, inhibitor	–	five-dose	–	CC50	6.88 µM
NC(=O)N/N=C/c1ccc(OCc2ccccc2)cc1	IMR-32	item: GPX3	–	400 µg/mL, 24 h	higher = more activity	glutathione peroxidase activity (OD450)	0.298 a.u.
O=C(C[Se]C(=O)c1cccs1)Nc1cccc(C(F)(F)F)c1	NCI60 ovarian subpanel	total growth inhibition, inhibitor	–	five-dose	–	mean TGI	3.56 µM
N[C@H](C(=O)N1CCCC1)C1CCN(c2nccc3c(-c4ncc(Cl)cc4Cl)cccc23)CC1	human neutrophils	protein citrullination, inhibitor, flow cytometry, item: citrullinated histone H3	–	3.16 µM, with: ionomycin	–	inhibition	79.3% and 80% and 81.1% and 83.1%
CNC(=S)NCCCC[C@H](NC(=O)CCc1ccccc1)C(=O)N[C@@H](CCCNC(=N)N)C(=O)N[C@@H](CC1CCCCC1)C(=O)N[C@H](CCCCN)C(=O)N[C@@H](CC1CCCCC1)C(=O)N[C@H](CCCNC(=N)N)C(=O)N[C@@H](CC1CCCCC1)C(N)=O	Jurkat	cell growth or viability, MTT	–	72 h	–	EC50	12.7 µM
O=C(C[Se]C(=O)c1ccco1)Nc1cccc(C(F)(F)F)c1	NCI60 renal subpanel	cell growth	–	10 µM, 48 h, one-dose	–	mean growth percent	-50.5%
C#CCN1C(=O)C(CC#C)(C(=O)OCC)Oc2ccccc21 (stereo not drawn)	HEK293T	cytotoxicity, CCK-8	–	25 µM, 72 h	–	inhibition	0.66 ± 0.06%
O=c1n(CCNCCOS(=O)(=O)c2ccccc2)c(=O)n(S(=O)(=O)c2ccccc2)c(=O)n1S(=O)(=O)c1ccccc1	A549	cell growth or viability, MTT	–	25 µg/mL, 48 h	–	viability	44%
O=C(C[Se]C(=O)c1cc2ccccc2[nH]1)Nc1cccc(C(F)(F)F)c1	NCI60 renal subpanel	cytotoxicity, inhibitor	–	five-dose	–	CC50	6.16 µM
O=C(O)c1ccc(-c2nc(-c3ccccc3Cl)c3sccn23)cc1	human CD34+ hematopoietic stem cells	megakaryocyte differentiation, flow cytometry, item: CD61	–	10 µM, day 10, with: TPO	reference: control	fold change	1.02 fold and 1.01 fold
CC(C)(C)C(=O)OCOP(=O)(OCOC(=O)C(C)(C)C)C1CCCN(O)C1=O (stereo not drawn)	SK-OV-3	–	–	–	–	TGI	8.81 µM
COc1ccccc1-c1ccncc1C(=O)Nc1nnc(OCc2ccc(Cl)cc2)s1	DLD-1 parental	–	–	8 µM	reference: untreated	colony survival	98.2% and 97% and 101%

A few entries again:
SMILES	tested on	test	system	conditions	scale	measurement	result
O=c1n(CCNCCOS(=O)(=O)c2ccccc2)c(=O)n(S(=O)(=O)c2ccccc2)c(=O)n1S(=O)(=O)c1ccccc1	A549	cell growth or viability, MTT	–	25 µg/mL, 48 h	–	viability	44%
O=C(C[Se]C(=O)c1ccc2ccccc2c1)Nc1cccc(C(F)(F)F)c1	NCI60 NSCLC subpanel	NCI60 five-dose screen	–	–	–	CC50	6.25 µM
CC(=O)NCSC[C@H](NC(=O)[C@@H]1CCCN1C(=O)[C@H](C)NC(=O)[C@@H](NC(=O)CNC(=O)[C@@H](NC(=O)[C@H](Cc1c[nH]c2ccccc12)NC(=O)[C@H](C)NC(=O)CNC(=O)[C@H](CO)NC(=O)[C@H](C)NC(=O)[C@@H]1CCCN1C(=O)[C@H](Cc1c[nH]c2ccccc12)NC(=O)[C@H](C)NC(=O)[C@H](C)NC(=O)[C@@H](N)Cc1ccc(O)cc1)[C@@H](C)O)[C@@H](C)O)C(=O)N[C@@H](CO)C(=O)N[C@@H](C)C(=O)NCC(=O)N[C@H](C(=O)NCCOCCOCCOCCOCCOCCOCCOCCOCCOCCOCCOCCOCCC(=O)N[C@@H](CS)C(N)=O)[C@@H](C)O	MDA-MB-468 breast cancer	cell binding, phage binding, item: output/input phage	–	10 min, 37 °C	reference: control phage	selectivity ratio	2.6 ± 0.97
CCOC(=O)C1(Cc2ccccc2)Oc2cc(F)ccc2N(Cc2ccccc2)C1=O (stereo not drawn)	HEK293T	cytotoxicity, CCK-8	–	12.5 µM, 72 h	–	inhibition	0.24 ± 0.45%
